Results of several laboratories.
Protocols differ between the studies behind these lines. ± marks the error that the study gave. Values after ≈ are worked out from the molar mass of the structure shown.

The blood-to-plasma ratio of `C[C@H]1C(=O)O[C@@H]2CC[N+]3([O-])CC=C(COC(=O)[C@](C)(O)[C@]1(C)O)[C@H]23` (stereo partly drawn) is reported as 0.709 (human, whole blood; 1000 ng/mL, 60 min, 37 °C).
`CC(C)C(=O)OC[C@H]1O[C@@H](n2ccc(NO)nc2=O)[C@H](O)[C@@H]1O` has a remaining compound of 98.6 ± 4.35% (rat blood dialysate; 5 ng/mL, 6 h, 10 °C, autosampler stability, with: NHC 25 ng/mL).
For `CC[C@H](C)[C@H](NC(=O)[C@H](CC(C)C)NC(=O)[C@H](Cc1c[nH]c2ccccc12)NC(=O)[C@H](CCC(N)=O)NC(=O)[C@@H](NC(=O)[C@H](Cc1ccccc1)NC(=O)[C@H](C)NC(=O)[C@H](CCCCNC(=O)COCCOCCNC(=O)COCCOCCNC(=O)CC[C@H](NC(=O)CCCCCCCCCCCCCCCCCCC(=O)O)C(=O)O)NC(=O)[C@H](CCC(N)=O)NC(=O)[C@H](C)NC(=O)[C@@H](NC(=O)[C@H](CCCCN)NC(=O)[C@H](CC(=O)O)NC(=O)[C@H](CC(C)C)NC(=O)C(C)(C)NC(=O)[C@@H](NC(=O)[C@H](CO)NC(=O)[C@H](Cc1ccc(O)cc1)NC(=O)[C@H](CC(=O)O)NC(=O)[C@H](CO)NC(=O)[C@@H](NC(=O)[C@H](Cc1ccccc1)NC(=O)[C@@H](NC(=O)CNC(=O)[C@H](CCC(=O)O)NC(=O)C(C)(C)NC(=O)[C@@H](N)Cc1ccc(O)cc1)[C@@H](C)O)[C@@H](C)O)[C@@H](C)CC)[C@@H](C)CC)C(C)C)C(=O)N[C@@H](C)C(=O)NCC(=O)NCC(=O)N1CCC[C@H]1C(=O)N[C@@H](CO)C(=O)N[C@@H](CO)C(=O)NCC(=O)N[C@@H](C)C(=O)N1CCC[C@H]1C(=O)N1CCC[C@H]1C(=O)N1CCC[C@H]1C(=O)N[C@@H](CO)C(N)=O`, the tmax difference was 0 h (human, mild hepatic impairment; subcutaneous, 5 mg; reference: normal hepatic function).
For `CN[C@@](C)(C[18F])C(=O)O`, the tracer uptake was 4.3 %ID/g (mouse, bone; 30 min, tumour-bearing).
`CC[C@H](C)[C@H](NC(=O)[C@@H](N)CCCNC(=N)N)C(=O)N[C@H](C(=O)N1CCC[C@H]1C(=O)N[C@@H](C)C(N)=O)C(C)C` gave a Cmax of 31000 ng/mL (human, plasma; intravenous, 8 mg/kg, single dose, healthy volunteers).
`c1cc2ccc3cccc4ccc(c1)c2c34` has a tissue concentration of 49.2 ± 14.3 ng/g (HPLC-fluorescence; Wistar rat, male, duodenum; oral, 4 mg/kg, 24 h).
The Tm of `CSCC[C@H](NC(=O)[C@H](CC(=O)O)NC(=O)[C@H](Cc1ccccc1)NC(=O)[C@H](CCCNC(=N)N)NC(=O)[C@H](Cc1ccc(O)cc1)NC(=O)[C@H](CC(=O)O)NC(=O)[C@H](CCCNC(=N)N)NC(=O)[C@H](Cc1c[nH]c2ccccc12)NC(=O)[C@@H](NC(=O)[C@H](Cc1c[nH]c2ccccc12)NC(=O)[C@@H](N)CCCNC(=N)N)C(C)C)C(=O)NCC(=O)N[C@@H](Cc1ccccc1)C(=O)N[C@@H](CC(=O)O)C(=O)N[C@@H](Cc1c[nH]c2ccccc12)C(=O)N[C@H](C(=O)N[C@@H](Cc1c[nH]c2ccccc12)C(=O)N[C@@H](CCC(=O)O)C(=O)O)C(C)C` is reported as 25.3 ± 0.1 °C (circular dichroism; phosphate buffer; pH 6.5).
For `CCOCN(C(=O)CCl)c1c(C)cccc1CC`, the remaining amount was 48.4 ± 34.1% (LC-MS/MS; herbicide solution; 2 h, 4 °C, with: 254 nm UV exposure).
`CCCCCCCCCCNCCN[C@@]1(C)C[C@H](O[C@H]2[C@H](Oc3c4cc5cc3Oc3ccc(cc3Cl)[C@@H](O)[C@@H](NC(=O)[C@@H](CC(C)C)NC)C(=O)N[C@@H](CC(N)=O)C(=O)N[C@H]5C(=O)N[C@H]3C(=O)N[C@H](C(=O)N[C@H](C(=O)O)c5cc(O)c(CNCP(=O)(O)O)c(O)c5-c5cc3ccc5O)[C@H](O)c3ccc(c(Cl)c3)O4)O[C@H](CO)[C@@H](O)[C@@H]2O)O[C@@H](C)[C@H]1O` has a tissue concentration of 11000 ± 1000 ng/g (perfused placental lobule tissue; 25 µg/mL, 240 min).
For `O=C(O)CCCc1ccc(N(CCCl)CCCl)cc1`, the EC20 was over 200 µM (mitochondrial swelling; BALB/cByJ female mouse liver mitochondria; 30 min, with: succinate + rotenone; reference: CaCl2 maximal swelling).
`CCCCCCCCCCCCCCCCCC[N+](C)(C)C` — result for “unbound fraction in blood”: 0.07 (ultrafiltration; human serum).
`CCCCCOc1ccc(-c2cc(-c3ccc(C(=O)N[C@H]4C[C@@H](O)[C@@H](O)NC(=O)[C@@H]5[C@@H](O)[C@@H](C)CN5C(=O)[C@H]([C@H](O)CC(N)=O)NC(=O)[C@H]([C@H](O)[C@@H](O)c5ccc(O)c(OS(=O)(=O)O)c5)NC(=O)[C@@H]5C[C@@H](O)CN5C(=O)[C@H]([C@@H](C)O)NC4=O)cc3)no2)cc1` has an AUCtau of 244 µg·h/mL (human children aged 6-11 years, plasma; intravenous, 3 mg/kg once daily, day 7, geometric mean).
For `COc1ccc(C[C@@H]2NC(=O)[C@H]([C@@H](C)O)NC(=O)[C@@H]3[C@@H]4CCN3C(=O)[C@@H]3Cc5cn(c6ccc(F)cc56)CCCCCCN(Cc5ccc(cc5)CCNC(=O)[C@]5(C)CCCN5C2=O)C(=O)CCC(=O)N[C@@H](C)C(=O)N[C@H](CNC(=O)CCCCC[N+](C)(C)C)C(=O)N[C@@H](Cc2cccc(c2)CNC(=O)CO4)C(=O)N3)cc1`, the Vz/F was 1270 L (fasted healthy humans, plasma; oral, 10 mg single dose, with 1800 mg Labrasol, geometric mean).
`NC(=O)c1nc(F)c[nH]c1=O` has a solubility of 2120 µg/mL (≈ 13.5 mM) (UV-Vis spectrophotometry; supercritical CO2; 120 min, 338 K, 27 MPa, 783.29 kg/m^3).
With `CC(=O)N[C@H](CCCCNC(=O)C(C)F)C(=O)N[C@@H](CS)C(=O)N[C@@H](CS)C(=O)N[C@@H](CCC(=O)O)C(=O)N[C@@H](Cc1c[nH]cn1)C(=O)N[C@H](Cc1ccccc1)C(=O)N[C@@H](CCCNC(=N)N)C(=O)N[C@@H](Cc1c[nH]c2ccccc12)C(=O)N[C@@H](CS)C(=O)N[C@@H](CCCNC(=N)N)C(=O)N1CCC[C@H]1C(=O)N[C@H](C(N)=O)C(C)C` (stereo partly drawn) [fluorine-18 labelled] the tissue uptake was 0.42 ± 0.06 %ID/g (C57BL/6 mice, male, B16-F10 tumour, blood; intravenous, 2 h).
`O=C(NCCS)c1cccc(C(=O)NCCS)c1` gave a concentration of 33.7 ng/mL (male Sprague-Dawley rat, plasma; intravenous, 1 mg/kg, 6 h).
The percent metabolized of `CNC(=O)Oc1cc(C)c(SC)c(C)c1` is reported as 1.83% (human liver mitochondrial preparation; 1 µM, 30 min, 0.5 mg/mL protein).
For `CC1(C)S[C@@H]2[C@H](NC(=O)[C@@H](C(=O)O)c3ccsc3)C(=O)N2[C@H]1C(=O)O`, the relative error was -0.9% (rat plasma; 8000 ng/mL, 24 h, room temperature, short-term stability; reference: nominal concentration).
`O[C@H]1CCCN[C@@H]1CCCn1cnc2c(Cl)c(Cl)ccc21`: “Tmax at steady state” 2 h (healthy human volunteers, plasma; oral, 25 mg twice daily, day 14, median).
`N=C(N)NCCC[C@H](NC(=O)CNC(=O)c1ccc2c(c1)C(=O)OC21c2ccc(O)cc2Oc2cc(O)ccc21)C(=O)N[C@@H](CCCCN)C(=O)N[C@@H](CCCCN)C(=O)N[C@@H](CCCNC(=N)N)C(=O)N[C@@H](CCCNC(=N)N)C(=O)N[C@@H](CCC(N)=O)C(=O)N[C@@H](CCCNC(=N)N)C(=O)N[C@@H](CCCNC(=N)N)C(=O)N[C@@H](CCCNC(=N)N)C(=O)N1CCC[C@H]1C(=O)N1CCC[C@H]1C(=O)N[C@@H](CCC(N)=O)C(=O)O` — result for “apparent skin permeability”: “no effect” (no effect; Sprague-Dawley rat, excised skin; 50 µmol/L, 37 °C, FAM-labelled CPP conjugate; reference: free FAM).
For `O=c1[nH]c(Cc2ccccn2)nc2c1cnn2C1CCOCC1`, the AUC(0-inf) was 7.98 µM·h (healthy men, extensive metabolizers, plasma; oral, 350 mg single dose, tablet, geometric mean).
For `[123I]c1cncc(OC[C@@H]2CCN2)c1`, the tissue/plasma ratio was 21.8 (SPECT; human, brain cortex; intravenous bolus plus infusion, 5.2 mCi; reference: plasma).
The CL/F of `CC[C@H](C)[C@H](NC(=O)[C@H](CC(C)C)NC(=O)[C@H](Cc1c[nH]c2ccccc12)NC(=O)[C@H](CCC(N)=O)NC(=O)[C@@H](NC(=O)[C@H](Cc1ccccc1)NC(=O)[C@H](C)NC(=O)[C@H](CCCCNC(=O)COCCOCCNC(=O)COCCOCCNC(=O)CC[C@H](NC(=O)CCCCCCCCCCCCCCCCCCC(=O)O)C(=O)O)NC(=O)[C@H](CCC(N)=O)NC(=O)[C@H](C)NC(=O)[C@@H](NC(=O)[C@H](CCCCN)NC(=O)[C@H](CC(=O)O)NC(=O)[C@H](CC(C)C)NC(=O)C(C)(C)NC(=O)[C@@H](NC(=O)[C@H](CO)NC(=O)[C@H](Cc1ccc(O)cc1)NC(=O)[C@H](CC(=O)O)NC(=O)[C@H](CO)NC(=O)[C@@H](NC(=O)[C@H](Cc1ccccc1)NC(=O)[C@@H](NC(=O)CNC(=O)[C@H](CCC(=O)O)NC(=O)C(C)(C)NC(=O)[C@@H](N)Cc1ccc(O)cc1)[C@@H](C)O)[C@@H](C)O)[C@@H](C)CC)[C@@H](C)CC)C(C)C)C(=O)N[C@@H](C)C(=O)NCC(=O)NCC(=O)N1CCC[C@H]1C(=O)N[C@@H](CO)C(=O)N[C@@H](CO)C(=O)NCC(=O)N[C@@H](C)C(=O)N1CCC[C@H]1C(=O)N1CCC[C@H]1C(=O)N1CCC[C@H]1C(=O)N[C@@H](CO)C(N)=O` is reported as 1 mL/min (human, severe renal impairment, plasma; subcutaneous, 5 mg single dose, geometric mean).
`Nc1cc(C(F)(F)F)c(-c2cc(N3CCOCC3)nc(N3CCOCC3)n2)cn1` — result for “unbound Cmax increase”: 83% (severe hepatic impairment, plasma; oral, 30 mg; reference: normal hepatic function).
